Assay results from different studies.
Protocols differ between the studies behind these lines. “And” joins repeats or separate records; there may be more than shown. ± gives the spread as reported.

`COC1CN([C@H]2CC[C@H]([C@@]3(C)Oc4c(Cl)cc(C(=O)NCc5c(SC)cc(C)[nH]c5=O)c(C)c4O3)CC2)C1`: “log2 fold change” 0.0895 (RNA-seq, item: MAML2 mouse homolog; mouse, HT-1376 xenograft, whole blood; dose not given; relative to: vehicle).
With `CC[n+]1cccc2cc(/C=N/NC(=O)c3cc(C(=O)N/N=C/c4ccc5c(ccc[n+]5CC)c4)ncn3)ccc21` the ΔTm was 1.6 ± 0.5 °C (hp2 hairpin duplex DNA; FRET melting; 1 µM).
With `COc1cc(Nc2ncnc3ccc(-c4ccc(S(=O)(=O)N5CCOCC5)cc4)cc23)ccc1OCc1cccc(F)c1` the EC50 was 1.6 µM (Leishmania major; parasite growth, resazurin; promastigote).
With `O=C(N/N=C/c1cc[n+](CC2CC2)c2ccccc12)C(=O)N/N=C/c1cc[n+](CC2CC2)c2ccccc12` the ΔTm was 0.8 ± 0.5 °C (hp2 hairpin duplex DNA; FRET melting; 1 µM).
For `COC1OC(C)C(O)C(OC2OC(C)C(O)C(OC3OC(C)C(O)C(OC4OC(C)C(O)C(OC5OC(C)C(O)C(OC6OC(C)C(O)C(OC7OC(C)C(O)C(OC8OC(C)C(O)C(OS(=O)(=O)O)C8OS(=O)(=O)O)C7OS(=O)(=O)O)C6OS(=O)(=O)O)C5OS(=O)(=O)O)C4OS(=O)(=O)O)C3OS(=O)(=O)O)C2OS(=O)(=O)O)C1OS(=O)(=O)O` (stereo not drawn), the prothrombin time was 14.9 ± 0.5 s (human plasma; 128 µg/mL).
`CCc1nnc(NC(=O)c2cccc(C(=O)Nc3nnc(CC)s3)n2)s1` gave an Emax of 34% (Mus musculus; gene silencing, high-content imaging; LDR reporter GFP cells; 30 h, retest, mean of two runs).
The IC50 of `CNS(=O)(=O)Nc1nccc(Cc2c(C)c3ccc(Oc4ncccc4F)cc3oc2=O)c1F` is reported as 0.0517 µM (JMSU-1; cell viability; 7 days).
With `C(=N\Nc1nc(-c2ccccn2)nc2ccccc12)/c1ccccc1` the Emax was 130% (Mus musculus; gene silencing, high-content imaging; LDR reporter GFP cells; 30 h, retest run 1).
With `O=C(N/N=C/c1cc[n+](CC2CC2)c2ccccc12)c1cncc(C(=O)N/N=C/c2cc[n+](CC3CC3)c3ccccc23)n1` the ΔTm was 1.4 °C (hp2 hairpin duplex DNA; FRET melting; 1 µM, together with: ds26 10 µM).
The Emax of `O=[N+]([O-])C(=C\Nc1ccccc1O)/C=N/c1ccccc1O` is reported as 28% (Mus musculus; gene silencing, high-content imaging; LDR reporter GFP cells; 30 h, retest, mean of two runs).
Under “fluorescence signal ratio”, `CC(C)C[C@H](NC(=O)[C@H](CC(=O)O)NC(=O)CNC(=O)[C@@H](N)CCCNC(=N)N)C(=O)N[C@@H](C)C(=O)N[C@H](C(=O)N[C@@H](CC(C)C)C(=O)N[C@@H](CCCNC(=N)N)C(=O)N[C@@H](CCC(N)=O)C(=O)N[C@@H](CC(C)C)C(=O)N[C@@H](C)C(=O)N[C@@H](CCC(N)=O)C(=O)N[C@@H](CCC(=O)O)C(=O)N[C@@H](CC(=O)O)C(=O)NCC(=O)N[C@H](C(=O)N[C@H](C(=O)NCC(=O)N[C@H](C(=O)N[C@@H](CCCNC(=N)N)C(=O)NCCOCCOCCOCCOCCOCCOCCOCCOCCOCCOCCOCCOCCC(=O)N[C@@H](CS)C(N)=O)C(C)C)C(C)C)C(C)C)[C@@H](C)O` is recorded as 3740 and 743 and 36.1 (ex vivo NIR imaging; NOD/SCID mice, xenograft, H2009 xenograft; intravenous, 30 µg, 24 h; relative to: spleen).
`CC[n+]1cccc2cc(/C=N/NC(=O)c3cncc(C(=O)N/N=C/c4ccc5c(ccc[n+]5CC)c4)n3)ccc21` gave a ΔTm of 1.6 ± 0.1 °C (hp2 hairpin duplex DNA; FRET melting; 1 µM, together with: ds26 10 µM).
The AC50 of `CCCC(=O)N1CCN(c2ccc(NC(=O)c3ccc([N+](=O)[O-])o3)cc2Cl)CC1` is reported as 2.51 µM (Mus musculus; gene silencing, high-content imaging; LDR reporter GFP cells; retest run 1).
`C[n+]1ccc(/C=N/NC(=O)c2ccc3ccc(C(=O)N/N=C/c4cc[n+](C)cc4)nc3n2)cc1` gave a ΔTm of 4.4 ± 0.2 °C (MYC parallel G4 DNA; FRET melting; 1 µM, DNA 0.2 µM, together with: duplex DNA competitor 10 µM).
`CN1CCCNC(=O)c2cccc(c2)C(=O)NCCCN(C)CCCNc2cccc3c2C(=O)c2cccc(c2C3=O)NCCC1` — result for “log2 fold change”: 1.29 (SAS; RNA-Seq, item: PSD4 mRNA; 1 µM, 6 h; relative to: untreated cells).
`Nc1ncc(-c2cc(-c3cnn(CC(F)(F)F)c3)ncc2F)nc1C(=O)NC1CNCC(F)C1` (stereo not drawn) gave a remaining binding of 82% (PLK2; KINOMEscan; 1 µM; relative to: DMSO control).
`Cc1ncsc1-c1ccc(C(C)NC(=O)C2CC(O)CN2C(=O)C(NC(=O)CCCCCCCCCCN2CCCC(Nc3ncc(Cl)c(Nc4ccccc4S(=O)(=O)C(C)C)n3)C2)C(C)(C)C)cc1` (stereo not drawn) — result for “log2 fold change”: -1.12 (22Rv1; RNA-seq, item: NME6 mRNA; concentration not given; relative to: DMSO).
Under “percent of control”, `C=CC(=O)Nc1cccc(Cn2ncc3cnc(Nc4cnn(CCOC)c4)nc32)c1` is recorded as 100% (FYN human; binding, KINOMEscan; 100 nM; lower = stronger binding).
With `CCC(=O)N1CCN(c2ccc(NC(=O)c3ccc([N+](=O)[O-])o3)cc2Cl)CC1` the Emax was 31% (Mus musculus; gene silencing, high-content imaging; LDR reporter GFP cells; 30 h, retest run 2).
`C[n+]1ccc(/C=N/NC(=O)c2cc(C(=O)N/N=C/c3cc[n+](C)c4ccccc34)ncn2)c2ccccc21` gave a ΔTm of 0.7 ± 0.1 °C (hp2 hairpin duplex DNA; FRET melting; 1 µM).
The Emax of `COc1ccc(NC(=O)CSc2nc3c(oc4ccccc43)c(=O)n2Cc2ccco2)cc1Cl` is reported as 51% (Mus musculus; gene silencing, high-content imaging; LDR reporter GFP cells; 30 h, retest run 1).
For `COC1OC(C)C(O)C(OC2OC(C)C(O)C(OC3OC(C)C(O)C(OC4OC(C)C(O)C(OC5OC(C)C(O)C(OS(=O)(=O)O)C5OS(=O)(=O)O)C4OS(=O)(=O)O)C3OS(=O)(=O)O)C2OS(=O)(=O)O)C1OS(=O)(=O)O` (stereo not drawn), “prothrombin time prolongation” read 0.98 fold (human plasma; 128 µg/mL; relative to: control).
`O=C(N/N=C/c1cc[n+](Cc2ccccc2)c2ccccc12)C(=O)N/N=C/c1cc[n+](Cc2ccccc2)c2ccccc12` gave a ΔTm of 4.6 ± 0.4 °C (MYC parallel G4 DNA; FRET melting; 1 µM, DNA 0.2 µM).
With `Cc1ccc(C(C)C)c(OCc2ccc(C(=O)N/N=C/c3cccc(O)c3O)cc2)c1` the EC50 was 3.98 µM (Mus musculus; gene silencing, high-content imaging; LDR reporter GFP cells; confirmation, mean of two runs).
`COC1OC(C)C(OC2OC(C)C(O)C(OS(=O)(=O)O)C2OS(=O)(=O)O)C(OS(=O)(=O)O)C1OS(=O)(=O)O` (stereo not drawn): “prothrombin time prolongation” 1.02 fold (human plasma; 128 µg/mL; relative to: control).
`COc1cccc(/C=N/Nc2nc(Nc3ccccc3)nc(-n3nc(C)cc3C)n2)c1O` gave an EC50 of 5.01 µM (Mus musculus; gene silencing, high-content imaging; LDR reporter GFP cells; retest, mean of two runs).
`COC1OC(C)C(OC2OC(C)C(OS(=O)(=O)O)C(OC3OC(C)C(OC4OC(C)C(OS(=O)(=O)O)C(OC5OC(C)C(OC6OC(C)C(OS(=O)(=O)O)C(OC7OC(C)C(OC8OC(C)C(OS(=O)(=O)O)C(OC9OC(C)C(OS(=O)(=O)O)C(OS(=O)(=O)O)C9O)C8O)C(OS(=O)(=O)O)C7O)C6O)C(OS(=O)(=O)O)C5O)C4O)C(OS(=O)(=O)O)C3O)C2O)C(OS(=O)(=O)O)C1O` (stereo not drawn) gave a prothrombin time of 15.1 ± 0.5 s (human plasma; 128 µg/mL).
For `C=CC(=O)N1[C@@H](c2ccc3c(c2)OCO3)c2[nH]c3ccccc3c2C[C@H]1C(=O)N1CCN(C)CC1`, the relative co-enrichment was 107% (human cyclin E1 N112C-3xFLAG:CDK2; co-IP with TMT proteomics, item: DDX17; concentration not given, Q92841; relative to: wild type DMSO).
With `CC[n+]1cccc2cc(/C=N/NC(=O)c3cccc(C(=O)N/N=C/c4ccc5c(ccc[n+]5CC)c4)n3)ccc21` the ΔTm was 2.5 ± 1 °C (hp2 hairpin duplex DNA; FRET melting; 1 µM).
`COC1OC(C)C(O)C(OC2OC(C)C(O)C(OC3OC(C)C(O)C(OC4OC(C)C(O)C(OC5OC(C)C(O)C(OC6OC(C)C(O)C(OC7OC(C)C(O)C(OS(=O)(=O)O)C7OS(=O)(=O)O)C6OS(=O)(=O)O)C5OS(=O)(=O)O)C4OS(=O)(=O)O)C3OS(=O)(=O)O)C2OS(=O)(=O)O)C1OS(=O)(=O)O` (stereo not drawn) — result for “prothrombin time prolongation”: 0.99 fold (human plasma; 128 µg/mL; relative to: control).

Repeated from above:
For `C=CC(=O)N1[C@@H](c2ccc3c(c2)OCO3)c2[nH]c3ccccc3c2C[C@H]1C(=O)N1CCN(C)CC1`, the relative co-enrichment was 107% (human cyclin E1 N112C-3xFLAG:CDK2; co-IP with TMT proteomics, item: DDX17; concentration not given, Q92841; relative to: wild type DMSO).
With `CC[n+]1cccc2cc(/C=N/NC(=O)c3cccc(C(=O)N/N=C/c4ccc5c(ccc[n+]5CC)c4)n3)ccc21` the ΔTm was 2.5 ± 1 °C (hp2 hairpin duplex DNA; FRET melting; 1 µM).
